Assay results of several laboratories.
A part holds a random share of what one study measured. Changes are numbered by the printed parent chain.

Study 1
Target: Histone acetyltransferase KAT6A, winged helix 2, GST fusion (KAT6A, Homo sapiens, UniProt Q92794, residues 85-181)
Technique: protein binding microarray
Form: double-stranded DNA, one strand shown
Medium: in vitro
Concentration: not given
Setting: 8-mer, flanks averaged, mean of 2 arrays, mostly near background
Baseline: not given
Reading: higher = stronger binding
Target sequence (chain): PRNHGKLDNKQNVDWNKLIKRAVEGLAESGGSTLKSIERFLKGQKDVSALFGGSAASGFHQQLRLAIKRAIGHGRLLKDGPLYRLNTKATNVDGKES
Sequence	E-score
ACCCCTAG	-0.249
GGGGCGAA	0.0493
ACCCGTTC	-0.0347
ACTCGCGC	0.226
CGCCTGAC	0.0994
AGTCAAAA	0.0545
AGCTCTCC	0.0209
ATACCGAA	0.126
CCGACTGA	0.104
ATACGTTG	-0.199
CAGCAGAG	0.111
AGAAGCCC	0.00528
AAGTGGGT	0.0472
CACACCCA	-0.021
TGAGAGAA	-0.0222
AATGACTG	-0.131
AGTCTCAG	-0.0512
CACAGTGA	0.0514
AGATAATG	0.00346
ACGTCGCT	-0.126
ATAAACCG	-0.107

Study 2
Target: CEBPE, bZIP domain (human)
Technique: DHFR protein complementation
Medium: yeast
Setting: single substitutions, most at no-binding floor
Baseline: wild-type JUN-FOS pair
Reading: higher = stronger binding
Starting sequence: JUN, bZIP domain (human); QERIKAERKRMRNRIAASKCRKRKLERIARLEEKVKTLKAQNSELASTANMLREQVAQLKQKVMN; partner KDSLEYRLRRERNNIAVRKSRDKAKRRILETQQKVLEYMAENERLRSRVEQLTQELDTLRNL
Variant	binding fitness
L31R	-1.51 natural log
T37E	-0.921 natural log
E44G	-1.41 natural log
K36P	-1.53 natural log
V56A	-1.42 natural log
R30S	-0.926 natural log
I28W	-1.12 natural log
A40T	-1.1 natural log
V56S	-1.55 natural log
L38G	-1.47 natural log
K36M	-1.07 natural log
A49K	-1.45 natural log
T48V	-1.22 natural log
Q55H	-1.35 natural log
R30K	-1.09 natural log
S47F	-1.29 natural log
Q41H	-1.4 natural log
L45P	-1.5 natural log
I28N	-1.25 natural log
I28Y	-1.35 natural log
T37C	-1.09 natural log
T37V	-1.03 natural log
E54G	-1.26 natural log

Study 3
Target: CCNB3, cyclin fold, Cln2 fusion (human)
Technique: yeast growth competition, sequencing
Medium: yeast
Setting: weak parent motif
Baseline: not given
Reading: higher = stronger binding
Starting sequence: HASPIN docking peptide (human); ASLRSVLFGLMNS; partner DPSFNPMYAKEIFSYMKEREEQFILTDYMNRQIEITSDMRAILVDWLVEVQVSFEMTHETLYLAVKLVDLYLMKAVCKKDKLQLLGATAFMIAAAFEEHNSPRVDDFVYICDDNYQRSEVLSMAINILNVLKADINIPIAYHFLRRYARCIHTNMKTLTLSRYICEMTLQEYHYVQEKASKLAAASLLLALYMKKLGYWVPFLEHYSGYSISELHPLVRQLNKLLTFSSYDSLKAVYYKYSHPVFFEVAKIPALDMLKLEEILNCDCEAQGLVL
Variant	normalised enrichment score
V6A	0.343
L7A	0.571
S2A	-0.364
L10A	0.185
S5A	0.47
G9A	0.41

Study 4
Target: ABI1, truncated, D143A, DHFR fusion (Arabidopsis thaliana, UniProt P49597)
Technique: DHFR PCA, dose-response
Medium: yeast
Setting: Hill fit, mean, not affinity
Added: (+)-ABA, dose series
Reading: lower = more sensitive
Starting sequence: PYL1, truncated, DHFR fusion (Arabidopsis thaliana, UniProt Q8VZS8); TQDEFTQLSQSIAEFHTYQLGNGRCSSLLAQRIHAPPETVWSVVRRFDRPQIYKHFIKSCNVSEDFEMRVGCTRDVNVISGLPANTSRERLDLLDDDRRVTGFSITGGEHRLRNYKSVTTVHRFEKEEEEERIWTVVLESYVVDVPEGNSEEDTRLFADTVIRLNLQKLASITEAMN
Variant	ABA EC50
R155S	32.7 µM
P146F	428 µM
I105E	583 µM
E130Y	5.73 µM
I52D	4.88 µM
H55Q	0.202 µM
E139C	2.44 µM
T160M	4.44 µM
T86N	0.422 µM
E109P	124 µM
V118Q	49.2 µM

Study 5
Target: RNA binding protein fox-1 homolog 2, RRM domain, GST-SBP tag (RBFOX2, Homo sapiens, UniProt O43251-10, residues 100-194)
Technique: RNA Bind-n-Seq
Form: RNA
Medium: in vitro
Concentration: 365 nM
Setting: natural RNA segment, single round, ends assumed
Baseline: no-protein control
Reading: higher = stronger binding
Residues (chain): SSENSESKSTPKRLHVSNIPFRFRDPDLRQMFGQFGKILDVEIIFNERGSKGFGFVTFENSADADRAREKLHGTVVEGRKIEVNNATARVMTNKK
Sequence	RBNS enrichment (R)
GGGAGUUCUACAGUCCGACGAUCCUUCUCUUUUUCGACAAUGGUAGACAUGAAUGAGAUAUUUAAAGUUCAUUGGAAAUCUUCUUCCCUACAGCAGUAAGCAAAAAUUAGCAAAGAGAUAGUCUAAAUGGCCUUGGAAUUCUCGGGUGCCAA	0.364
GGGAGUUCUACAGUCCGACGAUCUGAGUAUCCUUCUCCUGUCCUGCAACAACAUCCAUAUCCAGCCAGGUGGCCCUGUCUCAAGCACCUCUCUGGCCCUCUGGUGGCCCUUGCUUAAUAAAGAUUCUCCGAGCUGGAAUUCUCGGGUGCCAA	0.567
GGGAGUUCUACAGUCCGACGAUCCCUCAGUGGCCAGGCGCAAGGCUACAGGUGCAGUCACCUGUUCCCGGCCACCUUCCCUCCCAUCUUUGGCAGACAGAAGUCUCAGCUCUCACUAGAGGGAAGACCUGGGCUGGAAUUCUCGGGUGCCAA	0.253
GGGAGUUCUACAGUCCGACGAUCUUGACAUGCGUGCCCCGAUGCCACCAUAGCCCCUAGGCCAACAAUGUCAUGGUCUAAACACCAAAAAGUGAUGCCCCGCAUUCCUUCCCUGGAUGGUACCGUUUCUUCUCUGGAAUUCUCGGGUGCCAA	0.25
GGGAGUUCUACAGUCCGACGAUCAGCAGAAAAGCUCCCACCAUUUUCUUUUGAUGUGGUUUUAAAGUCUCACGUUCUCUAUAAUAGAAACAGCAGGUCUUGUCAGCUCCUUGUGUGGCUGAUGUGUCUGGAAAUGGAAUUCUCGGGUGCCAA	0.45
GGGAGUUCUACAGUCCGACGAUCCCUCGCCAUGUGCAUUGCCACCUCUGUUGUCCAGACGGGCACAUGCAGCACGCUGUGGUGACAGCCCGUCGGCACGGGAUUUGUACCGCUGUGCCCGUGUCAGCUCCUGGUGGAAUUCUCGGGUGCCAA	0.548
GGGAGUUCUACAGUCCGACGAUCUCUAAAACUCUGUGCAGAAUCUUGUGUUGGGAUUGUAUCUUGACAUUCCUGUUGUGUUAUUUUUCUUAACUGGAGUGUGUGCUGCCUUUCAGGUACAAUUUUUGUGUAAUUGGAAUUCUCGGGUGCCAA	0.47
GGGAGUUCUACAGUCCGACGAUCAAAACUGGACUUGAUUCUACUGGUAUGCAAAACAGGCAUGCUAGUAAGCAGUCAGUCGUGGCUCAGAACUUAACCCCAUAGCUCAGAGGAAUGCUUUUAGCAGAAAACAGUGGAAUUCUCGGGUGCCAA	0.383
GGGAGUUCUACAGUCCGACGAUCUAACAAAAGCCGCGACAGCCACCAGGCAGGCUUUUCCUUAUACAUGACAGAAGUUCGUAUUACGCCUUGGAAGGUCUAGGUGGAGAUCACCACCAGCAUUCUCUGCCUGUUGGAAUUCUCGGGUGCCAA	0.43
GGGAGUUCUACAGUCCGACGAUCAACACUGAGACAGGAGUGAGACCAGCUGCGGGUGGGGAGUUUGUGCUCCGCAGGUUACCUCAUGGCAUAUCAAAAAUGGCUUUUUUCUUCACUGCGCUCAAGGAAAAAGUUGGAAUUCUCGGGUGCCAA	0.904
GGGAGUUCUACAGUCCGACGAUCGUGGCCCCUAGCCAUGUAUCCAUUGGCUGUUUUGGCUUCAGAUUCAACCAAGAUCUGCCUGACUAAAAGAAGCCACCUCAGCGCAGUGGAACGGGGCCCAGGGGGAGGCAUGGAAUUCUCGGGUGCCAA	6.41
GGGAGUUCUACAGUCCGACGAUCUUUUUAAUGCAGGACACUUUGAGUGUUACAAAAUCUGUAGACCUGGCAGUAGGGUCAUGAUGUUGGGAAGGGUGUAGUGCCCUAGGUUGGUGACAGAAGGGACAGACACUUGGAAUUCUCGGGUGCCAA	0.732

Study 6
Target: Fragile X messenger ribonucleoprotein 1, C-terminal low-complexity region (Fmr1, Mus musculus, UniProt P35922)
Technique: RNA Bind-n-Seq
Form: RNA
Medium: in vitro
Concentration: 200 nM
Setting: whole 134-nt RNA, ends assumed
Added: 150 mM KCl
Baseline: input library
Reading: higher = stronger binding
Sequence	log2 enrichment
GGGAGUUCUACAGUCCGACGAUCUUUUCAUACCGAUCUAGAGUUCGUCCUUGCGUGGUUUAUGGUGGUGCCGAUAUUGGUCAGCAGAUUCGAGACUUGGAACGUGGAUGCCAUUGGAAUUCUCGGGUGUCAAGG	0.159
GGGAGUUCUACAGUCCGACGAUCACCAUGCAGGUGGGCAUCUUUGGGAAGUGGGGCAAGGGGGGGAUAGGGAGGGGGGUAACACUUUGGGAACAGGAGGUCCCAGGUCGUUUCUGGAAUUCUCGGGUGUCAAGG	0.305
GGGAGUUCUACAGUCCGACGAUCUCCUGUGCUACACAUCGUAUGUACCGAAUCGGGAAAGGGAAAAAAAGGGUUUUUUUGGGAAAGUAUUAUGUUACGCCGUUCGGAUCUGCAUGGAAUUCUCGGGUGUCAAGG	-0.342
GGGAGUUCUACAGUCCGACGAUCGUCCUGUGCUACACAUCGUAUGUACCGAAUCGGGGAAAGGGGUUUGGGGAAAAAGGGGAAAGUAUUAUGUUACGCCGUUCGGAUCUGCACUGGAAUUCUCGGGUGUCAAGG	0.368
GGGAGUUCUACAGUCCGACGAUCUCCUCAAGUCCUGUGCUACACAUCGUAUGUACCGAAUCGGGAGGGAGGAGGGAAAGUAUUAUGUUACGCCGUUCGGAUCUGCACUUCCAGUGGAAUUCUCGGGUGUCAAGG	1.03
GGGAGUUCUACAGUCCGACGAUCUCCUCAAGUCCUGUGCUACACAUCGUAUGUACCGAAUCGGGGCGGGCGGCGGAAAGUAUUAUGUUACGCCGUUCGGAUCUGCACUUCCAGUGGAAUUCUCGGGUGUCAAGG	-0.2
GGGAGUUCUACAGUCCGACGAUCCAAGUCCUGUGCUACACAUCGUAUGUACCGAAUCGGGGCCGGGGCCGGGGCCGGGAAAGUAUUAUGUUACGCCGUUCGGAUCUGCACUUCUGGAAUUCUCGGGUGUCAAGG	-0.474
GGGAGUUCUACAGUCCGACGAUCCUCAAGUCCUGUGCUACACAUCGUAUGUACCGAAUCGGUUGGGUUGGGUUGGGAAAGUAUUAUGUUACGCCGUUCGGAUCUGCACUUCCAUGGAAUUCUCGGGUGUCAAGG	1.16
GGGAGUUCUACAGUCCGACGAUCCUCAAGUCCUGUGCUACACAUCGUAUGUACCGAAUCGGAAGGGAAGGGGAAGGGAAAGUAUUAUGUUACGCCGUUCGGAUCUGCACUUCCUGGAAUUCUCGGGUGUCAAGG	0.535
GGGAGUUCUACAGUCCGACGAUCUUGCGCCUGUCCCGGGUGAAGUGUGUCGGCCUCUCCGCACGCACCACGGAGACCAGCAGUGCAGUCAUGUGCCUGGACCUUGCAGCUUCCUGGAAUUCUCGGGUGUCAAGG	-0.00234
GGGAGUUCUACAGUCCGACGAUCGUCCUGUGCUACACAUCGUAUGUACCGAAUCAAACCCAAAUUUUUUUAAACCCCCAAAAAAGUAUUAUGUUACGCCGUUCGGAUCUGCACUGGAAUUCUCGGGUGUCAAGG	-0.0925
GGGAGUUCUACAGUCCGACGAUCACCAUGCAGGUGGGCAUCUUUGGGAAGUGGGGCAAGGGGGGGAUAGGGAGGGGGGUAACACUUUGGGAACAGGUGGUCCCAGGUCGUUGCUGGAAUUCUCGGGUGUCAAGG	0.818
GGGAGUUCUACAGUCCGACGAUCGCAGGAAGUAAAAACAAAUGGAAAUGCUUCGGAUAGUGGCAGGGGUGGGGUUUGCUAAGGAAAGGGUGGGAUGGGAGUGGGUAAAGAGUUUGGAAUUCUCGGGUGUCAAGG	0.224
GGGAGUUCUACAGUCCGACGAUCUAACUUUAGAGGAGGAUCUGAUGGAUAUGGCAGUGGACGUGGAUUUGGGGAUGGCUAUAAUGGGUAUGGAGGAGGACCUGCAGGUGGCAAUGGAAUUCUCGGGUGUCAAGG	0.0296

Excerpt of the above (study 3):
Variant	normalised enrichment score
V6A	0.343
L7A	0.571
L10A	0.185
S5A	0.47
G9A	0.41
S2A	-0.364
